Assay results from different studies.
Each line is one published result; not all experiments were run side by side. Several values in a cell are separate wells, animals, samples, runs or records. Numbers after ± are the reported error.
Nuclear receptor subfamily 2 group C member 2 ligand-binding domain: Nuclear receptor subfamily 2 group C member 2, ligand-binding domain (Homo sapiens, UniProt P49116)
XPO1: Exportin-1 (XPO1, Homo sapiens, UniProt O14980)
Pancreatic alpha-amylase: Pancreatic alpha-amylase (Homo sapiens, UniProt P04746)
YTH domain-containing protein 1: YTH domain-containing protein 1 (Homo sapiens, UniProt Q96MU7)
T1: ssRNA, single strand (Homo sapiens); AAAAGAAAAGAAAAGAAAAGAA
T2: RNA aptamer; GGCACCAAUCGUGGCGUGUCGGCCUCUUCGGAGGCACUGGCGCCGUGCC
T3: riboswitch RNA yjdF aptamer (Bacillus subtilis); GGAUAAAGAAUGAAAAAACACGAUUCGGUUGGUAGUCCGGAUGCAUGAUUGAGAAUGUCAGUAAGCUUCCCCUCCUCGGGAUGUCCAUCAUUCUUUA

Under “thermal stability ratio”, `O=C(COP(=O)(O)O)[C@@H](O)[C@H](O)[C@H](O)COP(=O)(O)O` is recorded as 0.537 (Desmoplakin (DSP, Homo sapiens, UniProt P15924); thermal proteome profiling; HepG2 cell lysate; concentration not given, 57 over 37 °C, mean; relative to: compound over control).
For `O=C(NC1CCC1)c1ccc2nc(-c3cccc(NS(=O)(=O)NCCN4CCCCC4)c3)cn2c1`, the remaining activity was 86% (ALK (Homo sapiens, UniProt Q9UM73, L1196M); enzyme activity; 10 µM).
The remaining activity of `COc1cc(F)ccc1-c1ncnc(Nc2cccc(C[S@](C)(=N)=O)c2)n1` is reported as 96% (TSSK1B (Homo sapiens, UniProt Q9BXA7); kinase activity; 10 µM, added: 10 µM ATP).
`CCOc1cc(-c2nncn2C)ccc1Nc1ncc2cc(C)nc(NCC(C)(C)C)c2n1` has a displacement of 27% (STK33 (Homo sapiens, UniProt Q9BYT3); binding, LanthaScreen binding; 1 µM).
For `CCCNC(C)C(=O)Nc1ccccc1C` (centres unmarked), the koff was 1.15e-05 s⁻¹ (Nuclear receptor subfamily 2 group C member 2 ligand-binding domain; SPR imaging; 600 nM).
For `CN(C)C(=O)C(CCN1CCC(O)(c2ccc(Cl)cc2)CC1)(c1ccccc1)c1ccccc1`, the Hill coefficient was 0.735 ± 0.071 (Calcium-activated potassium channel subunit alpha-1, with LRRC26 γ1 subunit (KCNMA1, Homo sapiens, UniProt Q12791); BK channel conductance, inside-out patch clamp; BKα/γ1, Vm 120 mV, nominally Ca2+-free).
Under binding, `CN(C)c1ccc(Nc2c3ccc(NC(=O)CCN4CCCC4)cc3nc3cc(NC(=O)CCN4CCCC4)ccc23)cc1` is recorded as “no binding” (T1, ssRNA, single strand (Homo sapiens); 1H NMR peak broadening).
For `CC(Nc1nc(N2CCCC2)nc2ccccc12)c1ccccc1` (centres unmarked), “cells with nuclear reporter” read 6.6% and 2.81% and 2.3% (XPO1; nuclear export, high content imaging; HeLa Kyoto reporter; 0.1 µM, 2 h).
For `CC(C)C[C@@H]1NC(=O)[C@H](C)NC(=O)CNC(=O)[C@H](CC(N)=O)NC(=O)[C@@H]2CCCN2C(=O)[C@H](Cc2ccc(O)cc2)NC(=O)[C@H](CCCNC(=N)N)NC(=O)[C@H](Cc2ccccc2)NC(=O)[C@@H](NC(=O)[C@H](CCCCN)NC(=O)[C@@H]2CCCN2C(=O)[C@H](CO)NC(=O)[C@H](C)NC(=O)[C@@H](N)Cc2ccc(O)cc2)CSSC[C@@H](C(=O)N[C@H](C(N)=O)[C@@H](C)O)NC(=O)[C@H](C)NC1=O`, the -ΔH was 5.16 kcal/mol (Alpha-2-HS-glycoprotein, asialo (AHSG, Bos taurus, UniProt P12763); binding, isothermal titration calorimetry; pH 7.0, 25 °C, added: asialofetuin).
For `N#Cc1cc(Cn2cncc2CN2CCN(c3cccc(OC(F)(F)F)c3)C(=O)C2)ccc1Oc1ccccc1`, the IC50 was 320 ± 100 nM (Cryptococcus neoformans farnesyltransferase; enzyme activity, inhibitor, fluorescence; added: 1 µM FPP, 0.5 µM dansylated peptide).
`CC(C)C[C@@H]1NC(=O)CNC(=O)[C@H](CC(C)C)NC(=O)[C@@H]2CCCN2C(=O)[C@H](CC(=O)O)NC(=O)[C@H](Cc2ccc(O)cc2)NC(=O)CNC(=O)[C@@H](Cc2ccc(O)cc2)NC(=O)CSC[C@@H](C(N)=O)NC(=O)[C@H](C)NC(=O)[C@H](Cc2ccccc2)NC(=O)[C@H](Cc2ccc(O)cc2)NC(=O)[C@H](CCCCN)NC1=O` has a ΔG of -10.3 ± 0.08 kcal/mol (VPS35/VPS29 (Homo sapiens, UniProt Q96QK1+Q9UBQ0); binding, ITC; 25 °C, heterodimer).
`O=C1OC(c2ccccc2)=N/C1=C\c1ccc(O)c(O)c1` gave a Km of 1090 µM (Pancreatic alpha-amylase; inhibitor, Lineweaver-Burk; 100 ppm, added: starch substrate).
The koff of `CCCNCC(O)COc1ccccc1C(=O)CCc1ccccc1` (centres unmarked) is reported as 1.04e-07 s⁻¹ (Nuclear receptor subfamily 2 group C member 2 ligand-binding domain; SPR imaging; 600 nM).
`Nc1ncnc2c1ncn2[C@@H]1O[C@H](COP(=O)(O)OP(=O)(O)OP(=O)(O)O)[C@@H](O)[C@H]1O` — result for “concentration for full inhibition”: 0.6 to 0.7 mM (ATP-sensitive inward rectifier potassium channel 1 (Rattus norvegicus, UniProt P35560); channel activity, inhibitor, inside-out patch clamp; pH 7.2).
`Nc1nc2c(ncn2[C@@H]2O[C@H](COP(=O)(O)O)[C@@H](O)[C@H]2O)c(=O)[nH]1` has a reaction rate of -0.534 s⁻¹ and -0.174 s⁻¹ and -0.0956 s⁻¹ (GUK1 (Homo sapiens, UniProt Q16774, R44A); enzyme activity, NADH-coupled; 62.5 µM).
`NCCCC(=O)O`: “normalised MST signal” -0.0782 (SLC6A6 (Homo sapiens, UniProt P31641, G62A); binding, microscale thermophoresis; 488 nM, room temperature, added: 50 nM labelled protein; higher = more binding).
With `NC/C(=C\F)COc1cccc(Cn2c(=S)[nH]c(=O)c3[nH]cnc32)c1` the MPO activity was 159% and 88.8% and 81.6% and 64.5% (Myeloperoxidase (Mus musculus, UniProt P11247); mouse, zymosan or thioglycolate peritonitis, peritoneal fluid; 30 mg/kg; relative to: peritonitis vehicle).
`C[S+](CC[C@H](N)C(=O)O)C[C@H]1O[C@@H](n2cnc3c(N)ncnc32)[C@H](O)[C@@H]1O` (some centres unmarked) — result for “cooperativity factor σ”: 0.81 (O-methyltransferase (Sorghum bicolor, UniProt A0A1B6PFV1); biolayer interferometry; added: saturating PTR).
`COc1cc(C(=O)NC2CCCNC2)cc(OC)c1OC` (centres unmarked) gave a koff of 4.51e-08 s⁻¹ (Nuclear receptor subfamily 2 group C member 2 ligand-binding domain; SPR imaging; 600 nM).
With `O=C1OC(c2ccccc2)=N/C1=C\c1ccc(O)cc1` the Vmax was 0.063 mg/mL/min (Pancreatic alpha-amylase; inhibitor, Lineweaver-Burk; 300 ppm, added: starch substrate).
`c1coc(-c2n[nH]cc2-c2ccnc3ccccc23)c1` — result for “log2 fold change”: -0.21 (Serine/threonine-protein kinase GIN4 (GIN4, Candida albicans, UniProt Q59W62); kinase binding, MIB/MS competition; Candida albicans lysate; 10 µM; relative to: DMSO, negative = stronger binding).
`CC1(C)S[C@@H]2[C@H](NC(=O)[C@H](N)c3ccccc3)C(=O)N2[C@H]1C(=O)O` gave a koff of 2.29e-05 s⁻¹ (Nuclear receptor subfamily 2 group C member 2 ligand-binding domain; SPR imaging; 600 nM).
Under “log2 fold change”, `c1ccc(-c2n[nH]cc2-c2ccnc3ccccc23)nc1` is recorded as 1.48 (Serine/threonine-protein kinase CBK1 (CBK1, Candida albicans, UniProt Q5AP53); kinase binding, competitor, MIB/MS competition, item: CBK1; Candida albicans cell lysate; 100 nM; relative to: DMSO).
`Cc1nc(CSc2nc(SCc3ccc(C(C)C)cc3)nc(=O)[nH]2)cs1` gave a relaxed DNA of 25.3% (TOP2A (Homo sapiens, UniProt P11388); DNA relaxation; 125 µM, replicate 2).
With `CN(CCO)c1ccc(/C=C(\C#N)c2ccc(C#N)cc2)cc1` the Kd was 38.8 nM (T2, RNA aptamer; fluorescence titration, Hill fit; apparent).
For `Nc1ncnc2c1ncn2[C@@H]1O[C@H](COP(=O)(O)CP(=O)(O)OP(=O)(O)O)[C@@H](O)[C@H]1O`, the specific binding was 1300 CCPM and 1340 CCPM (P2X purinoceptor 1 (P2RX1, Homo sapiens, UniProt P51575, K136A); saturation binding; HEK293; 25 nM).
The inhibition of `O=C1c2ccccc2CCCN1CCCCN1CCN(c2ccccn2)CC1` is reported as 99% (HTR1A (Homo sapiens, UniProt P08908); radioligand binding; concentration not given, added: [3H]8-OH-DPAT).
`CC1=C(/C=C/C(C)=C/C=C/C(C)=C/C=O)C(C)(C)CCC1` gave a relative kon of 1.17 ± 0.23 (Rhodopsin (RHO, Bos taurus, UniProt P02699, I189V/S144F); retinal entry, Alexa488 FRET; lipid bicelles; 28 °C, I189V mutant; relative to: wild-type rhodopsin).
`CC[C@@H]1[C@H](F)C(=O)N[C@@H]1COc1nccc2cc(C(N)=O)c(OC)cc12` gave an inhibition of -9.7% (RPS6KA3 (Homo sapiens, UniProt P51812); ATP probe binding, KiNativ profiling, item: domain 2 Lys2 site; THP-1 cell lysate; 0.01 mM).
`Nc1ncnc2c1ncn2[C@@H]1O[C@H](COP(=O)(O)OP(=O)(O)OP(=O)(O)O)[C@@H](O)[C@H]1O` has a kcat of 45.5 s⁻¹ (GUK1 (Homo sapiens, UniProt Q16774); substrate, NADH-coupled).
The koff of `CCOC(=O)c1c(CSc2ccccc2)n(C)c2cc(Br)c(O)c(CN(C)C)c12.Cl` is reported as 1.16e-07 s⁻¹ (Nuclear receptor subfamily 2 group C member 2 ligand-binding domain; SPR imaging; 600 nM).
`CC1=C(/C=C/C(C)=C/C=C/C(C)=C/C=C/C=C(C)/C=C/C=C(C)/C=C/C2=C(C)CCCC2(C)C)C(C)(C)CCC1` — result for “number of binding sites”: 1.49 (Beta-lactoglobulin (LGB, Bos taurus, UniProt P02754); fluorescence quenching; concentration not given, 298 K).
For `Cc1ccc(N2CC(C(N)=O)CC2=O)cc1` (centres unmarked), “log fold enrichment” read 0 (YTH domain-containing protein 1; binding, affinity selection mass spectrometry; relative to: other proteins in batch).
For `Cc1cc2nc3[nH]c(=O)[nH]c(=O)c3nc2cc1C`, the Kd was 40 nM (T3, riboswitch RNA yjdF aptamer (Bacillus subtilis); fluorescence titration; added: 380 nM lumichrome).
`CCCCC[S+]([O-])c1n[nH]c(N)n1` (centres unmarked) — result for “log fold enrichment”: -0.262 (YTH domain-containing protein 1; binding, affinity selection mass spectrometry; relative to: other proteins in batch).
`CCS(=O)(=O)c1nc(C2CC2)cc(C(F)(F)F)n1` — result for “cells with nuclear reporter”: 3.43% and 2.4% and 3.7% (XPO1; nuclear export, high content imaging; HeLa Kyoto reporter; 0.158 µM, 2 h).
With `CC(=O)N[C@@H](CCCNC(=N)N)C(=O)N[C@H](C(=O)N[C@@H](CCCNC(=N)N)C(=O)N[C@@H](CCCNC(=N)N)C(=O)N[C@@H](CSSC(C)(C)C)C(=O)N[C@@H](CCCCNC(=O)c1ccc(F)cc1)C(=O)Nc1ccc2nc(C#N)sc2c1)C(C)C` the Vmax was 0.192 nmol/min/unit (Furin (FURIN, Homo sapiens, UniProt P09958); cleavage, substrate, HPLC; 15 min, 37 °C).
Under “remaining transport activity”, `CCNC(=O)/C=C/c1cccc(Br)c1` is recorded as 0.972 (SLC6A19 (Homo sapiens, UniProt Q695T7); inhibitor, L-[14C]leucine uptake; CHO-BC cells; 0.03 µM, 6 min, unit not given, added: GPNA 3 mM, JPH203 3 µM; relative to: uninhibited cells).
The binding entropy of `C[C@H](N)C(=O)N[C@@H](C)C(=O)N[C@H](C(=O)N[C@@H](CCCCN)C(=O)N[C@@H](CCC(N)=O)C(=O)N[C@H](C(=O)N[C@@H](C)C(=O)N[C@@H](CCCNC(=N)N)C(=O)N[C@@H](CCCCN)C(=O)N[C@@H](CO)C(=O)O)[C@@H](C)O)[C@@H](C)O` is reported as 2.84 cal/mol/K (Transcriptional regulator ATRX (ATRX, Homo sapiens, UniProt P46100, F284Y/K251R); isothermal titration calorimetry; concentration not given, pH 7.5, 25.0 °C).
`Cc1cccc(N2CC(C(=O)O)CC2=O)c1` (centres unmarked) — result for “log fold enrichment”: -0.102 (YTH domain-containing protein 1; binding, affinity selection mass spectrometry; relative to: other proteins in batch).
The log IC50 of `CC(=O)c1ccc2cc(S(=O)(=O)Nc3ccc(F)cc3)ccc2c1` is reported as 0.555 (STAT3 (Homo sapiens, UniProt P40763); tyrosine phosphorylation, inhibitor, ELISA, item: phospho-Tyr705).
`C=CC(=O)N1CCC(COCC(=O)N2CCN(c3nc(-c4cnc(N)nc4C(F)F)nc(N4CCOC[C@@H]4C)n3)CC2)CC1` gave a remaining binding of 100% (TIE1 (Homo sapiens, UniProt P35590); KINOMEscan; 1 µM).
`CCC[S+]([O-])c1ccc2[nH]c(NC(=O)OC)nc2c1` (centres unmarked) has a koff of 4.8e-05 s⁻¹ (Nuclear receptor subfamily 2 group C member 2 ligand-binding domain; SPR imaging; 600 nM).
For `CC1(C)CC2(C)OC(=O)NC2(C)c2ccccc21` (centres unmarked), “log fold enrichment” read -0.023 (S-phase kinase-associated protein 1 (SKP1, Homo sapiens, UniProt P63208); binding, affinity selection mass spectrometry; relative to: other proteins in batch).

Some of these lines once more:
For `CC1(C)CC2(C)OC(=O)NC2(C)c2ccccc21` (centres unmarked), “log fold enrichment” read -0.023 (S-phase kinase-associated protein 1 (SKP1, Homo sapiens, UniProt P63208); binding, affinity selection mass spectrometry; relative to: other proteins in batch).
`CC1=C(/C=C/C(C)=C/C=C/C(C)=C/C=C/C=C(C)/C=C/C=C(C)/C=C/C2=C(C)CCCC2(C)C)C(C)(C)CCC1` — result for “number of binding sites”: 1.49 (Beta-lactoglobulin (LGB, Bos taurus, UniProt P02754); fluorescence quenching; concentration not given, 298 K).
